Results from different studies.
Every numbered part comes from another study and shows a few of its results, in no order. Changes are numbered by the printed parent chain.

Block 1
Target: CCND3, cyclin fold, Cln2 fusion (human)
Technique: yeast growth competition, sequencing
Medium: yeast
Setting: weak parent motif
Baseline: not given
Reading: higher = stronger binding
Starting sequence: ITGB3BP docking peptide (human); MPVKRSLKLDGLL; partner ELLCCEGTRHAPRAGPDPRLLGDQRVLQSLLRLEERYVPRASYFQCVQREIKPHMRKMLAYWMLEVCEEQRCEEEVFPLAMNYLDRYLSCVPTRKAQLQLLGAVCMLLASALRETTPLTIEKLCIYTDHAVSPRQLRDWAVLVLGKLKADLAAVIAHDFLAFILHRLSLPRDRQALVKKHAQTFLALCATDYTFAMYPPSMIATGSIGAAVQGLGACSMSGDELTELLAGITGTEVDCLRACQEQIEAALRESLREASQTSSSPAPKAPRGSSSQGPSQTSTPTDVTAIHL
Change | normalised enrichment score
MPVKASLKLDGLL [R5A] | 0.0617
MPVKRSLKFDGLL [L9F] | -0.184
MAVKRSLKLDGLL [P2A] | 0.134
MPVKASAKLDGLL [R5A L7A] | 0.115
MPVKRALKLDGLL [S6A] | 0.151
MPVKKSLKLDGLL [R5K] | -0.0911
MPVARSLKLDGLL [K4A] | 0.117
MPVKRSLKLDGLA [L13A] | 0.162
MPVKRSLKLDALL [G11A] | 0.111
MPVKRSLKADGLL [L9A] | 0.183

Block 2
Target: CEBPE, bZIP domain (human)
Technique: DHFR protein complementation
Medium: yeast
Setting: single substitutions, most at no-binding floor
Baseline: wild-type JUN-FOS pair
Reading: higher = stronger binding
Starting sequence: JUN, bZIP domain (human); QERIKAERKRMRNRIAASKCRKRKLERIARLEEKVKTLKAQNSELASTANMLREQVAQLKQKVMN; partner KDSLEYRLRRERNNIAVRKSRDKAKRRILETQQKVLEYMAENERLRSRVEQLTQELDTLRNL
Change | binding fitness
K39H | -1.29 natural log
T48F | -1.36 natural log
A29F | -1.32 natural log
V56N | -1.51 natural log
A40R | -1.09 natural log
A40P | -1.46 natural log
A29Q | -1.18 natural log
A29V | -1.31 natural log
T37N | -1.03 natural log
R53D | -1.17 natural log
E33C | -1.32 natural log
L59S | -1.45 natural log
E33P | -1.53 natural log
E32R | -1.22 natural log
E32F | -1.23 natural log
A49L | -0.701 natural log
A46F | -1.33 natural log

Block 3
Target: Prothrombin, mature alpha-thrombin (F2, Homo sapiens, UniProt P00734)
Technique: aptamer microarray, sandwich
Form: DNA with 2'F-ANA
Medium: in vitro
Tested at: 200 nM
Setting: whole 15-mer aptamer, many near background
Added: Cy3 exosite-II aptamer, 400 nM
Reading: higher = stronger binding
Strand: GGTTGGTGTGGTTGG
Modification | mean fluorescence intensity [a.u.]
2'F-ANA at 2 3 5 6 7 10 11 13 14 | 48.4
2'F-ANA at 1 3 4 11 12 13 | 279
2'F-ANA at 1 2 13 14 15 | 52.3
2'F-ANA at 1 3 4 5 6 7 9 10 12 13 15 | 54.7
2'F-ANA at 8 10 11 13 14 15 | 87
2'F-ANA at 2 7 8 9 11 | 447
2'F-ANA at 2 4 7 9 11 12 13 15 | 280
2'F-ANA at 1 2 3 7 10 14 15 | 96.8
2'F-ANA at 4 7 9 10 11 12 13 14 | 61
2'F-ANA at 1 3 6 8 9 10 11 12 15 | 96.9
2'F-ANA at 1 2 5 7 10 | 44.1
2'F-ANA at 1 3 4 5 6 7 8 12 | 152
2'F-ANA at 1 2 4 6 7 8 10 14 15 | 47.2
2'F-ANA at 3 4 5 6 7 10 11 13 | 47.9
2'F-ANA at 1 2 5 8 10 12 14 15 | 58.5
2'F-ANA at 2 5 6 7 8 9 10 13 | 48.2

Block 4
Target: Ras GTPase-activating protein-binding protein 1, C-terminal RGG region (G3BP1, Homo sapiens, UniProt Q13283)
Chain of UniProt Q13283 (whole entry, looked up): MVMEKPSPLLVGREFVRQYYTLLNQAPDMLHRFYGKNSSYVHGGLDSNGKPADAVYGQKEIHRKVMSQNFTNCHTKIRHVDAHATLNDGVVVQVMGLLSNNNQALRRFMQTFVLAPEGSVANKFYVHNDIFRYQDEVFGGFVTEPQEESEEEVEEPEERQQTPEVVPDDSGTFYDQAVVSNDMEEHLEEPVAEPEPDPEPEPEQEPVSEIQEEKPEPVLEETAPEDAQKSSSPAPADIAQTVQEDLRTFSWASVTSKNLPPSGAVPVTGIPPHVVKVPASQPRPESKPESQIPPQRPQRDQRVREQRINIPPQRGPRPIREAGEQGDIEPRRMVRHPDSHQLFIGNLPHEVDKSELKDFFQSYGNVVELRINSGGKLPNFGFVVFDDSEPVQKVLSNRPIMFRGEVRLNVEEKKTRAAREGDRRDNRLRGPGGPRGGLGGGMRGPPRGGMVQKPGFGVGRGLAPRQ
Technique: RNA Bind-n-Seq
Form: RNA
Medium: in vitro
Tested at: 1 µM
Setting: whole 134-nt RNA, ends assumed
Added: 150 mM KCl
Baseline: input library
Reading: higher = stronger binding
Strand | log2 enrichment
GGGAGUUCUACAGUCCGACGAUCGCAGGAAGUAAAAACAAAUGGAAAUGCUUCAAAUAGUGGCAGGGGUGGGGGUUGCUAAGGAAAGGGUGGGAUGGGAGUGGGUAAAGAGUUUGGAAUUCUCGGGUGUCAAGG | 1.78
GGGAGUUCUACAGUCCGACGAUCGCAGGAAGUAAAAACAAAUGGAAAUGCUUCGGAUAGUGGCAGGGGUGGGGGUUGCUAAAAAAAGGGUGGGAUGGGAGUGGGUAAAGAGUUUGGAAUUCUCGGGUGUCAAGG | 2.13
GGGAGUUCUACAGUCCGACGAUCCUCAAGUCCUGUGCUACACAUCGUAUGUACCGAAUCGGCCGGGGCCGGGCCGGGAAAGUAUUAUGUUACGCCGUUCGGAUCUGCACUUCCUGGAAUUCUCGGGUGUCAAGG | -1.3
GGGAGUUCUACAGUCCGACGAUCUCAAGUCCUGUGCUACACAUCGUAUGUACCGAAUCGGGGAGGGGAGGGGAGGGGAAAGUAUUAUGUUACGCCGUUCGGAUCUGCACUUCCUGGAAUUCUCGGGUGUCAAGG | 3.28
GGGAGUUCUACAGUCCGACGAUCGCAGGAAGUAAAAACAAAUGGAAAUGCUUCGGAUAGUGGCAGGGGUGGGGGUUGCUAAGGAAAGGGAGGGAUGGGAGUGGGUAAAGAGUUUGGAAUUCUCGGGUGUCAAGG | 2.18
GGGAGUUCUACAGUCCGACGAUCCAAGUCCUGUGCUACACAUCGUAUGUACCGAAUCGGGAGGGUUUUUGGGAAAGGGAAAGUAUUAUGUUACGCCGUUCGGAUCUGCACUUCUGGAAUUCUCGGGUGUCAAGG | 0.421
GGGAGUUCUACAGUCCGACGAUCAAGUCCUGUGCUACACAUCGUAUGUACCGAAUCGGUUUUUUUGGUUUGGAAAAAGGAAAGUAUUAUGUUACGCCGUUCGGAUCUGCACUUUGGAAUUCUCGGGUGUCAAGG | -2.19
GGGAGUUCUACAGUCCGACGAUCCACAGACAACACGCACCCACACAGACACAGAGGGAAGGGGUUGGGAUGGGGAAAGGGUGCACAGCAGGGCGGGGUAGGACCCCAGCCCCUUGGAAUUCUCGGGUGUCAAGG | -0.265
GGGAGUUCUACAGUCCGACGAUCCAAGUCCUGUGCUACACAUCGUAUGUACCGAAUCGGUUUUUGGUUUUUUUGGAGGAAAGUAUUAUGUUACGCCGUUCGGAUCUGCACUUCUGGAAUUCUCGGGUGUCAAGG | -1.5

Block 5
Target: CEP164, C-terminal peptide (human)
Technique: DHFR complementation, deep sequencing
Medium: yeast
Setting: single substitutions, model-inferred values
Baseline: wild type
Reading: higher = weaker binding
Starting sequence: PDZK1, PDZ domain 2 (human); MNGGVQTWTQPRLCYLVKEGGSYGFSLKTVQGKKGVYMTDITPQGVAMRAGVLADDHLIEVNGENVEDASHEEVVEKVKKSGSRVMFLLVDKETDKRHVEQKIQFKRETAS; partner HNRVKVYRF
Change | binding free energy change [kcal/mol]
R97K | -0.215
A69C | -0.213
Q10R | -0.119
K79R | 0.0816
C14H | 0.316
E76H | 0.0727
E76Q | 0.00191
K92H | 0.166
K28T | -0.383
F105I | -0.129
G4T | 0.0351
V61L | 0.791
H98F | -0.0908
E100M | -0.0839
I59Y | 0.261
G51H | 0.972
R49I | 0.407
A110K | -0.112

Repeated from above (block 3):
Modification | mean fluorescence intensity [a.u.]
2'F-ANA at 1 2 5 7 10 | 44.1
2'F-ANA at 1 3 4 5 6 7 8 12 | 152
2'F-ANA at 1 2 3 7 10 14 15 | 96.8
2'F-ANA at 2 4 7 9 11 12 13 15 | 280
2'F-ANA at 4 7 9 10 11 12 13 14 | 61
2'F-ANA at 8 10 11 13 14 15 | 87
2'F-ANA at 1 3 6 8 9 10 11 12 15 | 96.9
2'F-ANA at 1 3 4 5 6 7 9 10 12 13 15 | 54.7
2'F-ANA at 3 4 5 6 7 10 11 13 | 47.9
2'F-ANA at 2 3 5 6 7 10 11 13 14 | 48.4
